Published values of several laboratories.
Parts stem from different laboratories: compare values within a part only.

Sample 1
Target: RNA binding protein fox-1 homolog 2, RRM domain, GST-SBP tag (RBFOX2, Homo sapiens, UniProt O43251-10, residues 100-194)
Method: RNA Bind-n-Seq
Form: RNA
Matrix: in vitro
Concentration: 365 nM
Setting: natural RNA segment, single round, ends assumed
Reference: no-protein control
Reading: higher = stronger binding
Construct (chain): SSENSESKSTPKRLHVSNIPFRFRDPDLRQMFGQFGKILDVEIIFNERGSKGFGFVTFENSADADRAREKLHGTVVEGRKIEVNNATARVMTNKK
| Strand | RBNS enrichment (R) |
| --- | --- |
| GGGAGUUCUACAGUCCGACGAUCAGAGAAGGUGUCUUUGGAGUUCACACAGCACACACUGUGCACAGAAGGCCUCCCCAUCUGGGAAAUAGAACUGGAUAUUUUGCCUCAUUCACUUGUACUGUAAUAGUGUAUGGAAUUCUCGGGUGCCAA | 0.727 |
| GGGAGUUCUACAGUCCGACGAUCCAUUAUUUAUUACGGAGCUGCCCCGCCUGGGUGGCCGGACCCCUGGGCCUUGGGGCUGUGGAUCCUGGUUCCCUGUUUGGAAAAUUCACCACCUCUAGCUCCUCACUGUUUGGAAUUCUCGGGUGCCAA | 0.479 |
| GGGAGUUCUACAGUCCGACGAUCAUAUUUUGGAGUCUUGAGAUUGUUUUUCUCUUUUCUUAUUAAAUAAUCUUUCUAUAAACCAGCACUACAGAGUUUGCUGUGUAUGUUUUCUCCAGGUUAUAAUGUAGGCAUGGAAUUCUCGGGUGCCAA | 0.651 |
| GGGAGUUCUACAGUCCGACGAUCACAAGAUUGUGUCUGGAAACCUUCGCAUCUUGGACCACUGAAUGAAAAAUACUGUGGACACUUAAAUAAUGGGCUAGUUUCUUACAAUGAAAUGUUCUCUAGGAUUCUAAUGGAAUUCUCGGGUGCCAA | 0.427 |
| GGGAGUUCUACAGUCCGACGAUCGUAAACCUUGUCUGAGUAGUGUUCCGAGGUCUUGCCGUUCCGGAUCCCUCUGUCUGUUUAUGCCUGGUGUGAGUUCCAUCGGGUGUCUUUAAAUAGUUGCAGAAGGGAUAUGGAAUUCUCGGGUGCCAA | 0.507 |
| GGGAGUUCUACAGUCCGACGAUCCGUGUUUUUGAGCUUGCUCUUACGUUUUAAGAGGUGCCAGGGGUACAUUUUUGCACUGAAAUCUAAAGAUGUUUUAAAAAACACUUUUCACAAAAAUAGUCCUUUGUCAUUGGAAUUCUCGGGUGCCAA | 0.629 |
| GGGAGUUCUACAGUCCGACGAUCCACUAUGUAGCUGGAACAGGAGGCCUAGGACCAGCCUGAUGCAGGUCUAUGAAGACCAGUGGUAGUGCCCAGACUUCUCCUAGACAUCUAGUCUAAAACAUUCUCCUAGGUGGAAUUCUCGGGUGCCAA | 0.613 |
| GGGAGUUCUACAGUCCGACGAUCUAUUGUGUGAUACUUGAAAAGAUAAAAGGGACUGCCAGCCCCUAACUGAAAUCUGAAGCUUUUUAUCGCUUAUUUUUCCUCGCCCUGUCUCCUCCCUUCCACCUUUCUCCUGGAAUUCUCGGGUGCCAA | 0.401 |
| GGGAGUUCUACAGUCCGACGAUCUUUCUGGGCCUCAUUCUGCCAAAGCUGGACCAAGGUUCCAUCUUUCUAAGCUCCCUAGCUCAGGCCAAGAAAGAAAGCUGAGCUACUUUUAACUUUCUCUUCCUUAAAUAUGGAAUUCUCGGGUGCCAA | 0.535 |
| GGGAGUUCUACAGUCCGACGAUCGACCCCCUAUGGGGGACCCCCAACUCAAGGCCAAGGACUGGGCGUAUCGGAUGCUCAUAACACCCCUGGCCUGGCCCCUUUACUGAGAAGACUCCUUGGAUAUUUCCCAAUGGAAUUCUCGGGUGCCAA | 0.244 |
| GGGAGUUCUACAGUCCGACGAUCAAGAAGAGGCCUGGUAAUGGCCCCUCCUCCUGGGACCCCUUCGUCCUCUCCUUACCCCACCUCCUGGGUACAGCCCAGGAGGACCUUGUGUGAUCAGACCAUUGAAACCAUGGAAUUCUCGGGUGCCAA | 0.176 |
| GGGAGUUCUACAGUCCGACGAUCAUGAAUCUUGCAUCAAUAUAAUUAUUGGGUUUUUUUUCUUUUUCCUGCUGUAUAACUCCUUGCCAUGCAAACUCUCAAGAGGCCAAUAUAUUCCUGGCCAUGUUUGAAUGUGGAAUUCUCGGGUGCCAA | 1.01 |

Sample 2
Target: RING finger protein unkempt homolog, zinc fingers 1-6, GST-SBP tag (UNK, Homo sapiens, UniProt Q9C0B0, residues 30-357)
Sequence of UniProt Q9C0B0 (30-357, looked up): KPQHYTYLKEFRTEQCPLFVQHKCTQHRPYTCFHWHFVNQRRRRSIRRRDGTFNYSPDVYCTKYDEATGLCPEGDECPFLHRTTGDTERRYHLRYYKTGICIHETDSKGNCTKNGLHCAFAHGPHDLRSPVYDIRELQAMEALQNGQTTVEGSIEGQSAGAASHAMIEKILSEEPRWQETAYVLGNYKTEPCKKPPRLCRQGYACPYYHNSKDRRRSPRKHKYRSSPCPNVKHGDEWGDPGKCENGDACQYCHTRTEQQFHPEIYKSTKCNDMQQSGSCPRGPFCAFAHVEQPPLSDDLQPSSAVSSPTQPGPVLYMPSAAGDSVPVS
Method: RNA Bind-n-Seq
Form: RNA
Matrix: in vitro
Concentration: not given
Setting: RNA with constant flanks, human-mouse chimeric sites, ends assumed
Reference: input RNA pool
Reading: higher = stronger binding
| Strand | bound/input enrichment |
| --- | --- |
| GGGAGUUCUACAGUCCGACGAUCAAAGUGAUGACUAUGUUUGUCCAACGACAGGUAUUUUCUGAGAACAAGGAUGAGAUUGCGUUAGUCCUCUAUGGCACAGAUGGCACUGAUAAUGCCCUUGCUGGCAAGGACCAGUAUCAGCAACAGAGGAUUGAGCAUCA | 0.127 ratio |
| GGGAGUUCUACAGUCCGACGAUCUACAUUUUAUUGUUGAGUUUCAUUUUCAUAUAUUCUUGUAGUGUCUGCUUGCCUGUGACUUCUGGUAAAAUAAAAUAAGCCUUUGAAUUAGCAUGCUCAUGGUAUUUAACAUUUUCUAAACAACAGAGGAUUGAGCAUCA | 0.622 ratio |
| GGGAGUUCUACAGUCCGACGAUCAAAGAGUGGAUAGAGUGUGCACACGGGAUCGGUGGGACUCGGGCAGAAAAGGAGUGCAAGAUAGAAUUCGAUGACUUCGAAGAGUGCUUGCUUCGGUACAAAACGAUGAGGCGAAUGCAUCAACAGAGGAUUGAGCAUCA | 0.34 ratio |
| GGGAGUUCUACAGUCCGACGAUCGUAUACGGUUAUCGAGGAAAGGACUGUAGAGCGAAUGUAUACCUGCUUCCCACAGGGGAGAUAGUUUAUUUCAUUGCCUCAGUGGUAGUACUAUUUAAUUAUGAGGAGAGGACUCAGCGACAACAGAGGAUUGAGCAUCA | 3.12 ratio |
| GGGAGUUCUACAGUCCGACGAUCUCCCAAAUCCAGCAGCUAGAAGGAGCCUUGAGACAAAGCCUGGAAAUACAGGGAAGGCGAUAACAUUGUACAUUGGUUUACAUUUUUUCCCCCUGUGGAUUUUUCUAUCCUAGUGCUUGCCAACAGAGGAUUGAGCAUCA | 0.267 ratio |
| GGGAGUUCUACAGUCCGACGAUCAAAGAACUUGCUGAUGAUGAAGAUGAGGAAGACAAUGAUGAUGUUGAACCCAUUUCUGAAUUUCGAUUUGUGCCUAGUGAUAAGUCAGCAUUGGAGGCGAUGUUCACAGCAAUGUGUGAGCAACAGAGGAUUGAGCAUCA | 0.433 ratio |
| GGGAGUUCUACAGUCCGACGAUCUAAAUUAGGGCUGCCGUUUUCUGUUUCUCCCUGGGCUGCGGAAAGCCAGAAGAUUUUAUCUAGUUUGUACAAGGCUGCUGGUGUUCCCUCUUUUUUUCCACGAGGGUGUUUUUGGCUGCACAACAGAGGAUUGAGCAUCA | 1.24 ratio |
| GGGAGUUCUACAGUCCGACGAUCUCCUUGGAACCCAGUCAUAUAGGUGACCUGCAGAAAGCAGACACCAGUAGUCAAGGUGCUUUAGUGUUUCUCUCAAAGGACUACGAAAUAGAAAAUCAAAAUCCCCUGGCCUCUCCUACGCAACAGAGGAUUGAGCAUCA | 2.82 ratio |
| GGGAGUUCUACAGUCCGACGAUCGUGACUGGUGUUAAGAUUUCCCCUCAGCAAAGAAGUGUAGCAGUGACCAUAAUUCCAUCUAUAGUGAGUGCCAGUCAGAUUGUGGAGCUGGUCCCAGACCUCAGUUUAGACAUGGGAACUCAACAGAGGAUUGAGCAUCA | 1.2 ratio |
| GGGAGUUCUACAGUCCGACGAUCUUACCCGAGAACGAGGAUGAGCUGGAGAGCACCAACAGGCGCUACACCAAGAGGGACUGCAGCACUUUCCUCAGAACUAGCGAGACGGGCAUUGUGGACCAGGUCAUGGUCACUCUCAACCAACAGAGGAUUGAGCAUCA | 0.118 ratio |
| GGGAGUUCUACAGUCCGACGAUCCGCUUGGAUGAGGCGGGUGUCACAGAUGAAGUGCUGGAUUCUGCCAUGCAAGCCUUCUUACUAGAAAUCAUUGUUAAACAUGGGGAGCCGGCACCUUAUUUAUGUAACAAAGAUCCGUUUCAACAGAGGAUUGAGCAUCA | 0.193 ratio |

Sample 3
Target: Histone acetyltransferase KAT6A, winged helix 1, GST fusion (KAT6A, Homo sapiens, UniProt Q92794, residues 1-85)
Method: protein binding microarray
Form: double-stranded DNA, one strand shown
Matrix: in vitro
Concentration: not given
Setting: 8-mer, flanks averaged, mean of 2 arrays, mostly near background
Reference: not given
Reading: higher = stronger binding
Target sequence (chain): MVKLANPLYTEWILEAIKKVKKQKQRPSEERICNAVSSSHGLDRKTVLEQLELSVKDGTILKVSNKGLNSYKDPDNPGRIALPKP
| Strand | E-score |
| --- | --- |
| GAGCACAA | -0.231 |
| ATAAAATA | -0.0442 |
| CCTTCCAG | -0.275 |
| AATCGCAT | -0.0059 |
| CGAATAGA | -0.191 |
| ACCTTTAT | -0.233 |
| TGGCTTAA | -0.181 |
| AGAGCTCA | -0.141 |
| CGCGTACC | 0.331 |
| CATAAGCA | -0.0258 |
| CAGTGTAA | -0.0901 |
| TCAAGTCA | -0.181 |
| CCTAACCG | 0.134 |
| CAGTTACA | -0.0645 |
| ACATCACT | -0.12 |
| CGTTCCCC | 0.163 |
| ATTATGCA | -0.186 |
| ACGATTCC | -0.0554 |
| CCCTATTC | -0.0619 |

Sample 4
Target: Ras GTPase-activating protein-binding protein 1, full length (G3BP1, Homo sapiens, UniProt Q13283)
Sequence of UniProt Q13283 (whole entry, looked up): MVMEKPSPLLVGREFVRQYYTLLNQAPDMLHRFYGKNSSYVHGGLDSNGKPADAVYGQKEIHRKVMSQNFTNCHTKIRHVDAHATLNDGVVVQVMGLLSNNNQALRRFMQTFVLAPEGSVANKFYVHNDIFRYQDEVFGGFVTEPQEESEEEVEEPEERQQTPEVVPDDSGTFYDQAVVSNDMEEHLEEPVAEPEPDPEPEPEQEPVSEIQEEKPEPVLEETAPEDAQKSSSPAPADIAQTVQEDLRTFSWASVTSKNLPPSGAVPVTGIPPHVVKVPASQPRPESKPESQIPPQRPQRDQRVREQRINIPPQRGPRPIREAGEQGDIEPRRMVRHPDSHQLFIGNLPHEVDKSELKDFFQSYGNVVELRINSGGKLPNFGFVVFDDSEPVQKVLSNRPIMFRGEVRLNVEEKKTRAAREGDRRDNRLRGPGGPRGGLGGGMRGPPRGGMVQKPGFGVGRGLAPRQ
Method: RNA Bind-n-Seq
Form: RNA
Matrix: in vitro
Concentration: 200 nM
Setting: whole 134-nt RNA, ends assumed
Added: 150 mM KCl
Reference: input library
Reading: higher = stronger binding
| Strand | log2 enrichment |
| --- | --- |
| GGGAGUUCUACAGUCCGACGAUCCAAGUCCUGUGCUACACAUCGUAUGUACCGAAUCGGUGGAAAAAAAGGUUUUUGGAAAGUAUUAUGUUACGCCGUUCGGAUCUGCACUUCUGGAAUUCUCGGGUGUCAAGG | -1.05 |
| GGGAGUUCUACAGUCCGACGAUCCCUCAAGUCCUGUGCUACACAUCGUAUGUACCGAAUCGGGCGGGGCGGCGGGGAAAGUAUUAUGUUACGCCGUUCGGAUCUGCACUUCCAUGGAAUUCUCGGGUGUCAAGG | 0.953 |
| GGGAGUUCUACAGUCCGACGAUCUCCUGUGCUACACAUCGUAUGUACCGAAUCAAACCCCCCCAAAUUUAAAUUUUUUUAAAAAAGUAUUAUGUUACGCCGUUCGGAUCUGCAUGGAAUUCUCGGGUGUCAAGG | 0.313 |
| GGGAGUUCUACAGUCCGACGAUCAGUCCUGUGCUACACAUCGUAUGUACCGAAUCGGGGUGGGGUUUGGGGUUUUUGGGGAAAGUAUUAUGUUACGCCGUUCGGAUCUGCACUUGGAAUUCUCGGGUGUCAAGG | 0.785 |
| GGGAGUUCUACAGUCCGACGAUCCCUGUGCUACACAUCGUAUGUACCGAAUCGGGGAAAAAAAGGGGUGGGGUUUUUUUGGGGAAAGUAUUAUGUUACGCCGUUCGGAUCUGCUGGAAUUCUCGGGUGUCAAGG | 0.233 |
| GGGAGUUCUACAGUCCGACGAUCACCAUGCAGGUGGGCAUCUUUGGGAAGUGGGGCAAGGGGGGGAUAGGGAGGGGGGUAACACUUUGGGAACAGGUGGUCCAAAGUCGUUUCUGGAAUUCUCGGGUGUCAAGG | 1.22 |
| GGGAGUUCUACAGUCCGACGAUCUUGCAGAUGAGCUUAUGGGGGGCAAUCUUAAAAAGUCCACAGCAGAUGCAUCCGGCUCGAGGGGCCAUCAGCUUUGAAUAAAUGCUUGUUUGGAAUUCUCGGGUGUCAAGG | -0.0543 |
| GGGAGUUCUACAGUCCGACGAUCGUCCUGUGCUACACAUCGUAUGUACCGAAUCGGGAAAAAAAGGGAAAAAGGGAAAGGGAAAGUAUUAUGUUACGCCGUUCGGAUCUGCACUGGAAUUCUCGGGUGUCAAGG | -0.349 |
| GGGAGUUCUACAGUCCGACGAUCUCCUCAAGUCCUGUGCUACACAUCGUAUGUACCGAAUCGGUGGAAAGGAGGAAAGUAUUAUGUUACGCCGUUCGGAUCUGCACUUCCAGCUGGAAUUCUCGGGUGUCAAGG | -0.588 |
| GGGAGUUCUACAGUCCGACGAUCAAGUCCUGUGCUACACAUCGUAUGUACCGAAUCGGAAAAGGGAAAAGGGAAAAGGGGAAAGUAUUAUGUUACGCCGUUCGGAUCUGCACUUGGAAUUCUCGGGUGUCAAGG | -0.568 |

A few entries again (sample 2):
| Strand | bound/input enrichment |
| --- | --- |
| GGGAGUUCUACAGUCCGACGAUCUCCUUGGAACCCAGUCAUAUAGGUGACCUGCAGAAAGCAGACACCAGUAGUCAAGGUGCUUUAGUGUUUCUCUCAAAGGACUACGAAAUAGAAAAUCAAAAUCCCCUGGCCUCUCCUACGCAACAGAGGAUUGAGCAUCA | 2.82 ratio |
| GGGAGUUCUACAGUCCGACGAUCGUGACUGGUGUUAAGAUUUCCCCUCAGCAAAGAAGUGUAGCAGUGACCAUAAUUCCAUCUAUAGUGAGUGCCAGUCAGAUUGUGGAGCUGGUCCCAGACCUCAGUUUAGACAUGGGAACUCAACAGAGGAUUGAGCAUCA | 1.2 ratio |
| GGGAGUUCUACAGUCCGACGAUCUUACCCGAGAACGAGGAUGAGCUGGAGAGCACCAACAGGCGCUACACCAAGAGGGACUGCAGCACUUUCCUCAGAACUAGCGAGACGGGCAUUGUGGACCAGGUCAUGGUCACUCUCAACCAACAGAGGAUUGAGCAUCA | 0.118 ratio |
